Assay results pooled from the literature.
Parts stem from different laboratories: compare values within a part only.
UniProt Q99640, sequence (whole entry, looked up): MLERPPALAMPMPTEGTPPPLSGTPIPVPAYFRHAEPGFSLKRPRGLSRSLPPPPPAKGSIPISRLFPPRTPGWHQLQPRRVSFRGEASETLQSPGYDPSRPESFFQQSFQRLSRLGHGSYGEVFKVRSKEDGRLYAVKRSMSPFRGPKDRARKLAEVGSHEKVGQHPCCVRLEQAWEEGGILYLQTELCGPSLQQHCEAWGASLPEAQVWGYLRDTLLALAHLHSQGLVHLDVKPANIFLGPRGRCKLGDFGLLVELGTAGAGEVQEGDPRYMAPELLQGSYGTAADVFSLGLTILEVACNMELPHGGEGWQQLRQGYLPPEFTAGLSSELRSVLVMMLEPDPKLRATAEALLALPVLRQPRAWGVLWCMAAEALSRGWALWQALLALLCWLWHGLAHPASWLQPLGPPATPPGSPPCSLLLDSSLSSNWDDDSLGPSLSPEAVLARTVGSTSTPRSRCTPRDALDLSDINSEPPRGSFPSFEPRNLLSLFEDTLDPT
UniProt Q9NWZ3, sequence (whole entry, looked up): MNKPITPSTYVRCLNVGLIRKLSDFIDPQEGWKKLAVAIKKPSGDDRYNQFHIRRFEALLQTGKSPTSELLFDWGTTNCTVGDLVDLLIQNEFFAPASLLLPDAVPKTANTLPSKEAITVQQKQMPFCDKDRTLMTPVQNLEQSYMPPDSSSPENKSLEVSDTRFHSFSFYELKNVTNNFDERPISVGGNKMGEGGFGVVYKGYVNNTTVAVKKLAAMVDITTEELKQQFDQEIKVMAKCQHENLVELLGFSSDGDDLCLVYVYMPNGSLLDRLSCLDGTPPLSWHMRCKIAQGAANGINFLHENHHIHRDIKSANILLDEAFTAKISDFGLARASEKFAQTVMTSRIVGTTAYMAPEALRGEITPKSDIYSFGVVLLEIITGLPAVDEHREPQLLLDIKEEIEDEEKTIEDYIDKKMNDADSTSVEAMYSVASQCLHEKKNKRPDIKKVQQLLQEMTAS
UniProt P68400, sequence (whole entry, looked up): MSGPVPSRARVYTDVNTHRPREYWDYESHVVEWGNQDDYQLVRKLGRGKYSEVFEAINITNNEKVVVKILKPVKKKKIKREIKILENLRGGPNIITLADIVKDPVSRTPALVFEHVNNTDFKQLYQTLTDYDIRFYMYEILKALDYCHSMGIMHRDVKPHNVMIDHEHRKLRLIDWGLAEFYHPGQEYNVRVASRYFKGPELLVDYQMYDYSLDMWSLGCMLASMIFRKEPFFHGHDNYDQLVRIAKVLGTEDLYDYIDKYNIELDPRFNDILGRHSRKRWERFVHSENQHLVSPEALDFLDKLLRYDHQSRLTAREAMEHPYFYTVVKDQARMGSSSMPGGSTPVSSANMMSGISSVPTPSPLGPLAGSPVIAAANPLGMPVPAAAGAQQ
UniProt Q02779, sequence (whole entry, looked up): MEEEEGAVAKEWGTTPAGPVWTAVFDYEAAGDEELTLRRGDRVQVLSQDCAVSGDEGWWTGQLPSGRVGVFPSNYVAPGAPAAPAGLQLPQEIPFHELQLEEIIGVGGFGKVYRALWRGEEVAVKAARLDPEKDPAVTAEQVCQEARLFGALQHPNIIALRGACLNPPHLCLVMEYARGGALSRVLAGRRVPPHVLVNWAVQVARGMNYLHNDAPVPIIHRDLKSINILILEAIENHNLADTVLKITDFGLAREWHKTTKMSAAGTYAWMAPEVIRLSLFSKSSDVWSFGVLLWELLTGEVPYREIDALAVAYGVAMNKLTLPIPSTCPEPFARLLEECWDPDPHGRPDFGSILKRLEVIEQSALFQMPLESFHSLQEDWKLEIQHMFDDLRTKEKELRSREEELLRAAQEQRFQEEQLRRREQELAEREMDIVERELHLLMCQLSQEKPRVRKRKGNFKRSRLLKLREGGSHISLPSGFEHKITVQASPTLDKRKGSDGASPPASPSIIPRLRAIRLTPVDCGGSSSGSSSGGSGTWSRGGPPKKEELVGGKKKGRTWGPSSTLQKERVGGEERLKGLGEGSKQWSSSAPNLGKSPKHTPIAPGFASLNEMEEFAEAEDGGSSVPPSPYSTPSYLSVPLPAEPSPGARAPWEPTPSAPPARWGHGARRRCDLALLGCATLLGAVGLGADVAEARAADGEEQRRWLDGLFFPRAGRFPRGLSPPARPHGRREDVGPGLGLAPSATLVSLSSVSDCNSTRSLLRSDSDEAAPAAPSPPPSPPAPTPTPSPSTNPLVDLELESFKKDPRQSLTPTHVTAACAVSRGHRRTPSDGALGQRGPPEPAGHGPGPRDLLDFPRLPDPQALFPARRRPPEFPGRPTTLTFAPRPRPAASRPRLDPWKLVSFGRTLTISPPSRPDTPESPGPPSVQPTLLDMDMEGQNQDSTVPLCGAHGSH
UniProt O15264, sequence (whole entry, looked up): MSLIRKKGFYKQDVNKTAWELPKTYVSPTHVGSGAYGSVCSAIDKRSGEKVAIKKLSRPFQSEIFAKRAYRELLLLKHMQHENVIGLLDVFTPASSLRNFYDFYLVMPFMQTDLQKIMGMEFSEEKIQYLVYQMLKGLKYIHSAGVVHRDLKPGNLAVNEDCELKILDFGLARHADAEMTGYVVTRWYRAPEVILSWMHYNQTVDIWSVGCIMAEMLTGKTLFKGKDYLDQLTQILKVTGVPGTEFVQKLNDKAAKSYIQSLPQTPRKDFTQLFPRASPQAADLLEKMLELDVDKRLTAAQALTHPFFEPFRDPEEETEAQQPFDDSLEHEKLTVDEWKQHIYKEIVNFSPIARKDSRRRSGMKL
UniProt Q9Y3S1, sequence (whole entry, looked up): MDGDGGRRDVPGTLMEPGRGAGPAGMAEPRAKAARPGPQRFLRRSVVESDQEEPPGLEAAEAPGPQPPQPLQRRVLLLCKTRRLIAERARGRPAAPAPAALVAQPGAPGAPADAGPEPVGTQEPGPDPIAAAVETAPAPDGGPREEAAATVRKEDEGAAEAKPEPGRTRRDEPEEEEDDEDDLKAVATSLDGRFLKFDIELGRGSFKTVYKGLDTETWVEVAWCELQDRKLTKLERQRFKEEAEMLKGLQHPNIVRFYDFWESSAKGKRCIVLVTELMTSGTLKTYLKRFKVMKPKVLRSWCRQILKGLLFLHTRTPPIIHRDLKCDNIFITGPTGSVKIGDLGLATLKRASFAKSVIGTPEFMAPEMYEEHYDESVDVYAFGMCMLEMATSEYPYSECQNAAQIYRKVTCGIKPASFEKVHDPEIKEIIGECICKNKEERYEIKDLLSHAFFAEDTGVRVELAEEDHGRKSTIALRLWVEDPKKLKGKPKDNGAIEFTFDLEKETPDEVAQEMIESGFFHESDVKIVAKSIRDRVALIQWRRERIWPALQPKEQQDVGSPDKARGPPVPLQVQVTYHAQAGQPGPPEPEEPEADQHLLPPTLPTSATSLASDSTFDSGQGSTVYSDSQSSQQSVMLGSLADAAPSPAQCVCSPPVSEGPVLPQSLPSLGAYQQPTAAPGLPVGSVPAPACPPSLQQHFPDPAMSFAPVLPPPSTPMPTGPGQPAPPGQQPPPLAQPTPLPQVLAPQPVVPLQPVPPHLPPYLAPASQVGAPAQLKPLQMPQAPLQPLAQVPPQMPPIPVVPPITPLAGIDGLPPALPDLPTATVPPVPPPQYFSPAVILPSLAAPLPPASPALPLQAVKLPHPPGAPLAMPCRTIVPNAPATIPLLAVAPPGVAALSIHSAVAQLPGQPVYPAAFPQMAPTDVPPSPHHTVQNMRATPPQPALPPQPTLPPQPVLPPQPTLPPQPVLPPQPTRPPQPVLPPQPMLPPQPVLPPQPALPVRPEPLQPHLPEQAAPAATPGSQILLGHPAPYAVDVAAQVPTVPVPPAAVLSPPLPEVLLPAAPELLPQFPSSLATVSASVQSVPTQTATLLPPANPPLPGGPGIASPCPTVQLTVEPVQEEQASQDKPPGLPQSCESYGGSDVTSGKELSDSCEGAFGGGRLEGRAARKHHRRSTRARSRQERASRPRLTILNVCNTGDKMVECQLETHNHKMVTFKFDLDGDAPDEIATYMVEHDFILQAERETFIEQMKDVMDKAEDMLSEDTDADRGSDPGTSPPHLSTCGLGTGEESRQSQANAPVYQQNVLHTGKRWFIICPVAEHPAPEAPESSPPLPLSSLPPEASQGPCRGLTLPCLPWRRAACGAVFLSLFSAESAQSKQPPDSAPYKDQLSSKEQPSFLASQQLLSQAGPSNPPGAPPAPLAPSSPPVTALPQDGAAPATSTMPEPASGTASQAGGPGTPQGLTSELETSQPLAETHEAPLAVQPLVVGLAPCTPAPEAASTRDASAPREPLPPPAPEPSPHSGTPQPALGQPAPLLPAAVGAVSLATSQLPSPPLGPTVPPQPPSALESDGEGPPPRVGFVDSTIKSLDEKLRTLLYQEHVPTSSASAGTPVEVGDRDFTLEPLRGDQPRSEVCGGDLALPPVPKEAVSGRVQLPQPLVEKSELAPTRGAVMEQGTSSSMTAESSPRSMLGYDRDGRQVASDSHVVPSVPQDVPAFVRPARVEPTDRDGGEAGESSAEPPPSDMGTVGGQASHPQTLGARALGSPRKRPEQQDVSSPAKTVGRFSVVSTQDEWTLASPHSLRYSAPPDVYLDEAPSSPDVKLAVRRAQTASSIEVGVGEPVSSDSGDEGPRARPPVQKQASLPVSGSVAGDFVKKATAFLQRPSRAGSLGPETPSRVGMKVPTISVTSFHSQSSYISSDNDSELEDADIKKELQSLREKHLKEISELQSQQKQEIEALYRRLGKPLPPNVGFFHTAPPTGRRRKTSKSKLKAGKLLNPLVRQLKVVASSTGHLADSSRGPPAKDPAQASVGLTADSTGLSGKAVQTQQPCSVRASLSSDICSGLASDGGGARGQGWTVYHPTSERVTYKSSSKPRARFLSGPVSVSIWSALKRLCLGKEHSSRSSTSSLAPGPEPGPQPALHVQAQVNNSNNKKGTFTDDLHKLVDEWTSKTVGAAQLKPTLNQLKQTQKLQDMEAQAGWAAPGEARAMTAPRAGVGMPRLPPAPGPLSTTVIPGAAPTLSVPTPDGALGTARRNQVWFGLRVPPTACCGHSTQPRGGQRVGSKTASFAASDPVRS

Study 1
Compound: CN([C@@H]1CCc2c(CC(=O)O)c3cc(S(C)(=O)=O)ccc3n2C1)S(=O)(=O)c1ccc(F)cc1
Observed: cell-free assay
Technique: competition with immobilised ligand
Tested at: 1 µM
| target | remaining binding [%] |
| --- | --- |
| Focal adhesion kinase 1 (PTK2, Homo sapiens, UniProt Q05397) | 99 |
| Membrane-associated tyrosine- and threonine-specific cdc2-inhibitory kinase (PKMYT1, Homo sapiens, UniProt Q99640) | 100 |
| Serine/threonine-protein kinase Sgk1 (SGK1, Homo sapiens, UniProt O00141) | 100 |
| Macrophage colony-stimulating factor 1 receptor (CSF1R, Homo sapiens, UniProt P07333) | 100 |
| Ankyrin repeat and protein kinase domain-containing protein 1 (ANKK1, Homo sapiens, UniProt Q8NFD2) | 96 |

Study 2
Structure (SMILES): Cc1ccc(NC(=O)c2ccnc(C(F)(F)F)c2)cc1-c1cc(OCCO)nc(N2CCOCC2)c1
| target | observed | technique | tested at | remaining binding |
| --- | --- | --- | --- | --- |
| Serine/threonine-protein kinase SIK2 (SIK2, Homo sapiens, UniProt Q9H0K1) | binding | competition with immobilised ligand | 1 µM | 97% |
| Membrane-associated tyrosine- and threonine-specific cdc2-inhibitory kinase (PKMYT1, Homo sapiens, UniProt Q99640) | binding | competition with immobilised ligand | 1 µM | 93% |
| Cyclin-dependent kinase 19 (CDK19, Homo sapiens, UniProt Q9BWU1) |  | DiscoverX cell-free binding | 1000 nM | 98% |
| Ribosomal protein S6 kinase alpha-4, C-terminal kinase domain (RPS6KA4, Homo sapiens, UniProt O75676) | binding | competition with immobilised ligand | 1 µM | 100% |
| Serine/threonine-protein kinase PRP4 homolog (PRPF4B, Homo sapiens, UniProt Q13523) | binding |  | 1 µM | 100% |
| Myosin light chain kinase family member 4 (MYLK4, Homo sapiens, UniProt Q86YV6) | binding |  | 1 µM | 96% |
| Serine/threonine-protein kinase RIO3 (RIOK3, Homo sapiens, UniProt O14730) | binding |  | 1 µM | 66% |

Study 3
Organism: Sarcocystis neurona
Observed: parasite growth
Tested at: 10 µM
Setting: secondary screen
| SMILES | inhibition [%] |
| --- | --- |
| CN[C@@H]1[C@H](O)[C@H](NC)[C@H]2O[C@@]3(O)C(=O)C[C@@H](C)O[C@H]3O[C@@H]2[C@H]1O.Cl.Cl | -31.2 |
| CC(C)NCC(O)COc1cccc2ccccc12.Cl (stereo not shown) | -26.5 |
| CC1Cc2ccccc2N1NC(=O)c1ccc(Cl)c(S(N)(=O)=O)c1 (stereo not shown) | -53 |
| CCCc1nc2c(C)cc(-c3nc4ccccc4n3C)cc2n1Cc1ccc(-c2ccccc2C(=O)O)cc1 | 15.6 |
| CC1(C)S[C@@H]2[C@H](/N=C/N3CCCCCC3)C(=O)N2[C@H]1C(=O)O | -22.8 |

Study 4
Cell line: HaCaT
Tested at: 100 µM
Time: 36 h
| SMILES | viability [%] |
| --- | --- |
| Cc1c(-c2ccc(O)cc2)n(Cc2ccc(OCCN3CCCCCC3)cc2)c2ccc(O)cc12 | 8.59 |
| CCOc1ccc(Cc2cc([C@@H]3O[C@H](CO)[C@@H](O)[C@H](O)[C@H]3O)ccc2Cl)cc1 | 96.4 |
| CC(=O)Nc1c(I)c(NC(C)=O)c(I)c(C(=O)O)c1I | 87.7 |
| Cc1cc(-n2c(=O)[nH]c(=O)n(C)c2=O)ccc1Oc1ccc(SC(F)(F)F)cc1 | 47.6 |
| COC(=O)C1=C(C)NC(C)=C(C(=O)OCC(C)C)C1c1ccccc1[N+](=O)[O-] (stereo not shown) | 6.39 |
| CC(C)[C@H](N)C(=O)OCCOCn1cnc2c(=O)[nH]c(N)nc21 | 91.2 |
| CC(=O)Nc1ccc(CC(=O)O)cc1 | 88.7 |
| O=C(O)c1cc(-c2ccc(F)cc2F)ccc1O | 74.8 |

Study 5
Structure (SMILES): Cc1nc(-c2ccccc2)c(-c2ccncc2)o1
Observed: enzyme activity
Mode: inhibitor
Tested at: 0.5 µM
Baseline: control
| target | remaining activity |
| --- | --- |
| Casein kinase II subunit alpha (CSNK2A1, Homo sapiens, UniProt P68400) | 109% |
| Protein kinase C delta type (PRKCD, Homo sapiens, UniProt Q05655) | 96.2% |
| Mast/stem cell growth factor receptor Kit (KIT, Homo sapiens, UniProt P10721) | 93.7% |
| Mitogen-activated protein kinase kinase kinase 10 (MAP3K10, Homo sapiens, UniProt Q02779) | 101% |
| Protein kinase C iota type (PRKCI, Homo sapiens, UniProt P41743) | 101% |
| Mitogen-activated protein kinase 12 (MAPK12, Homo sapiens, UniProt P53778) | 105% |
| Serine/threonine-protein kinase Chk1 (CHEK1, Homo sapiens, UniProt O14757) | 106% |
| Serine/threonine-protein kinase WNK2 (WNK2, Homo sapiens, UniProt Q9Y3S1) | 101% |
| MAP kinase-interacting serine/threonine-protein kinase 2 (MKNK2, Homo sapiens, UniProt Q9HBH9) | 90.5% |
| RAC-gamma serine/threonine-protein kinase (AKT3, Homo sapiens, UniProt Q9Y243) | 106% |
| Casein kinase I isoform alpha (CSNK1A1, Homo sapiens, UniProt P48729) | 86.4% |
| Interleukin-1 receptor-associated kinase 4 (IRAK4, Homo sapiens, UniProt Q9NWZ3) | 107% |
| Tyrosine-protein kinase BTK (BTK, Homo sapiens, UniProt Q06187) | 98.3% |
| Leucine-rich repeat serine/threonine-protein kinase 2 (LRRK2, Homo sapiens, UniProt Q5S007) | 96.8% |
| Serine/threonine-protein kinase 38 (STK38, Homo sapiens, UniProt Q15208) | 97.3% |
| Mitogen-activated protein kinase kinase kinase kinase 2 (MAP4K2, Homo sapiens, UniProt Q12851) | 106% |
| Serine/threonine-protein kinase Nek4 (NEK4, Homo sapiens, UniProt P51957) | 100% |
| Dual specificity mitogen-activated protein kinase kinase 6 (MAP2K6, Homo sapiens, UniProt P52564) | 99.3% |
| cGMP-dependent protein kinase 1 (PRKG1, Homo sapiens, UniProt Q13976) | 90.5% |
| Serine/threonine-protein kinase PLK2 (PLK2, Homo sapiens, UniProt Q9NYY3) | 106% |
| Mitogen-activated protein kinase 13 (MAPK13, Homo sapiens, UniProt O15264) | 114% |

For quick reference, copied from above (study 3):
| SMILES | inhibition [%] |
| --- | --- |
| CN[C@@H]1[C@H](O)[C@H](NC)[C@H]2O[C@@]3(O)C(=O)C[C@@H](C)O[C@H]3O[C@@H]2[C@H]1O.Cl.Cl | -31.2 |
| CC(C)NCC(O)COc1cccc2ccccc12.Cl (stereo not shown) | -26.5 |
| CC1Cc2ccccc2N1NC(=O)c1ccc(Cl)c(S(N)(=O)=O)c1 (stereo not shown) | -53 |
| CCCc1nc2c(C)cc(-c3nc4ccccc4n3C)cc2n1Cc1ccc(-c2ccccc2C(=O)O)cc1 | 15.6 |
| CC1(C)S[C@@H]2[C@H](/N=C/N3CCCCCC3)C(=O)N2[C@H]1C(=O)O | -22.8 |
